Experimental data collected from several papers.
Every numbered part comes from another study and shows a few of its results, in no order.
Sequence of UniProt Q9HC98 (whole entry, looked up): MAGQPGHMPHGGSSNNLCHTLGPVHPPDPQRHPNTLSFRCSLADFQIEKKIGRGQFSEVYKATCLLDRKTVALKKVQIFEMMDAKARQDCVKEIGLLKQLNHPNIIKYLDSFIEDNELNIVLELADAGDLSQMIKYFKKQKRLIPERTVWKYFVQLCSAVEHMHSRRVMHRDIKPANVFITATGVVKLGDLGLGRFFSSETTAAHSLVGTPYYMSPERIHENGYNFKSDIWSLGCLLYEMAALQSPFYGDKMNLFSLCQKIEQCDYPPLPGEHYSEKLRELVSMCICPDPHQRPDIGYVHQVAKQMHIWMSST
Sequence of UniProt P78368 (whole entry, looked up): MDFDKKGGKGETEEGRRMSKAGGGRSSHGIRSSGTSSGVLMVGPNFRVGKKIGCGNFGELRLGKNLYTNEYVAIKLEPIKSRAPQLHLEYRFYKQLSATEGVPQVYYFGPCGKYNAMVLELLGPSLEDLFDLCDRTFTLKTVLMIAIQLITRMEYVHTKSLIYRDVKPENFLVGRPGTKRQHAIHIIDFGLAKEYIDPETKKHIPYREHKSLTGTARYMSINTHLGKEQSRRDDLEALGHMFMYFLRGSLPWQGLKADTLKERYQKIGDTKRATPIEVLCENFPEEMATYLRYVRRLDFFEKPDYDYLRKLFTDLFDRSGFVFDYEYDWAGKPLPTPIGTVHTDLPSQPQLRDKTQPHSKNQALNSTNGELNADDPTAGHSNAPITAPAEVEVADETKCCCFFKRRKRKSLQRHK
Sequence of UniProt Q15349 (whole entry, looked up): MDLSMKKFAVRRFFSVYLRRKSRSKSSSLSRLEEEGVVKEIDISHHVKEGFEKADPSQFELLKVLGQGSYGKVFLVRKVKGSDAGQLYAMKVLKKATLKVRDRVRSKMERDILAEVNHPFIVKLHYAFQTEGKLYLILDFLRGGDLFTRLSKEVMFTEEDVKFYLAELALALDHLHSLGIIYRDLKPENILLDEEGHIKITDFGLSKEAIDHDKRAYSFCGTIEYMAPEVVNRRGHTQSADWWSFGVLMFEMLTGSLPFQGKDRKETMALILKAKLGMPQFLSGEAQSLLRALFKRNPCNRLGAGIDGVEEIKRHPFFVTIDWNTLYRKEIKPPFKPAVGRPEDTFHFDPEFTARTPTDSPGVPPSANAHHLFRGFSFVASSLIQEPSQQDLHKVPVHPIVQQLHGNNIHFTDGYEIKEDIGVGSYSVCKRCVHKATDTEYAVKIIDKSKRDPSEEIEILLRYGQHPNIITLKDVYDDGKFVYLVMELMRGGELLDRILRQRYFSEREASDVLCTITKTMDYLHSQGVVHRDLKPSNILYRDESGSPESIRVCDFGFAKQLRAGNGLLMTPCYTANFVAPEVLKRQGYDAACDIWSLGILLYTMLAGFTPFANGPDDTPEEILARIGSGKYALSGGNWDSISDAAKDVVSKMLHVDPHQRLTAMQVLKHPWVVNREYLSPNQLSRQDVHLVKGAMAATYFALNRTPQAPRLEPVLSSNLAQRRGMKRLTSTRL
Sequence of UniProt P42685 (whole entry, looked up): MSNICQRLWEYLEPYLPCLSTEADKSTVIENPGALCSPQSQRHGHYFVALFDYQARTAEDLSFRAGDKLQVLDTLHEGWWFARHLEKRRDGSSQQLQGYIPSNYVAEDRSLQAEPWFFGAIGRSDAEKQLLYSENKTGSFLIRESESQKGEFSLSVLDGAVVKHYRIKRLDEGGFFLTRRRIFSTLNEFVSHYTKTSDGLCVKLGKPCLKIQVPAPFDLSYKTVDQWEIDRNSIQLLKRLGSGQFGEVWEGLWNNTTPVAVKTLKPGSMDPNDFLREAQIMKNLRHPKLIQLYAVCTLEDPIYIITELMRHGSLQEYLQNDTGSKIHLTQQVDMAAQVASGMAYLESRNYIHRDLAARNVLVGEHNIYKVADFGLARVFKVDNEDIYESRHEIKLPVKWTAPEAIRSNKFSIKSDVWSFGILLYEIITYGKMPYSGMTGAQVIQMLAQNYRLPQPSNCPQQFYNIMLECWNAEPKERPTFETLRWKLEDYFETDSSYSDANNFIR
Sequence of UniProt Q00532 (whole entry, looked up): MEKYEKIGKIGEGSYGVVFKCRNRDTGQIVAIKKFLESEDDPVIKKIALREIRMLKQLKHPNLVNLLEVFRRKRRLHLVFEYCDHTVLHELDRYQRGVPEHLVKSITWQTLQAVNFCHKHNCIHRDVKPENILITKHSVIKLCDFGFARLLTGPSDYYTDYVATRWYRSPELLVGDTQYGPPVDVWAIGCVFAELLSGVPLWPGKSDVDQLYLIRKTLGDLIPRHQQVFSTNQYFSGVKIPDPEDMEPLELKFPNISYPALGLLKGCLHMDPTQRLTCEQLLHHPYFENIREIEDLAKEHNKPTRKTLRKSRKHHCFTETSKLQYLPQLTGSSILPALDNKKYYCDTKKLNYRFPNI
Sequence of UniProt Q9HAZ1 (whole entry, looked up): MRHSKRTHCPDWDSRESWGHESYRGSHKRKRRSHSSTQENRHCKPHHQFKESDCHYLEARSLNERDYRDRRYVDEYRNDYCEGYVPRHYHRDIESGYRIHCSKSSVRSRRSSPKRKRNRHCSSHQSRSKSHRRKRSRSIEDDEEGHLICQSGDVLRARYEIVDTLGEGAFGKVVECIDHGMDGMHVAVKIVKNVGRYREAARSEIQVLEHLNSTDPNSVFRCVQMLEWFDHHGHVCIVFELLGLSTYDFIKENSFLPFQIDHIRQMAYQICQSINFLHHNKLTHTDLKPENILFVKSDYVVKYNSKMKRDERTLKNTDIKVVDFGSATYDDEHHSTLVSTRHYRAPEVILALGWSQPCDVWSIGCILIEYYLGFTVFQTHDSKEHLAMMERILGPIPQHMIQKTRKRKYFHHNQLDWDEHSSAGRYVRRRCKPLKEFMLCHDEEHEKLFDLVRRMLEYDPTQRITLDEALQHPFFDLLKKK
Sequence of UniProt Q04912 (whole entry, looked up): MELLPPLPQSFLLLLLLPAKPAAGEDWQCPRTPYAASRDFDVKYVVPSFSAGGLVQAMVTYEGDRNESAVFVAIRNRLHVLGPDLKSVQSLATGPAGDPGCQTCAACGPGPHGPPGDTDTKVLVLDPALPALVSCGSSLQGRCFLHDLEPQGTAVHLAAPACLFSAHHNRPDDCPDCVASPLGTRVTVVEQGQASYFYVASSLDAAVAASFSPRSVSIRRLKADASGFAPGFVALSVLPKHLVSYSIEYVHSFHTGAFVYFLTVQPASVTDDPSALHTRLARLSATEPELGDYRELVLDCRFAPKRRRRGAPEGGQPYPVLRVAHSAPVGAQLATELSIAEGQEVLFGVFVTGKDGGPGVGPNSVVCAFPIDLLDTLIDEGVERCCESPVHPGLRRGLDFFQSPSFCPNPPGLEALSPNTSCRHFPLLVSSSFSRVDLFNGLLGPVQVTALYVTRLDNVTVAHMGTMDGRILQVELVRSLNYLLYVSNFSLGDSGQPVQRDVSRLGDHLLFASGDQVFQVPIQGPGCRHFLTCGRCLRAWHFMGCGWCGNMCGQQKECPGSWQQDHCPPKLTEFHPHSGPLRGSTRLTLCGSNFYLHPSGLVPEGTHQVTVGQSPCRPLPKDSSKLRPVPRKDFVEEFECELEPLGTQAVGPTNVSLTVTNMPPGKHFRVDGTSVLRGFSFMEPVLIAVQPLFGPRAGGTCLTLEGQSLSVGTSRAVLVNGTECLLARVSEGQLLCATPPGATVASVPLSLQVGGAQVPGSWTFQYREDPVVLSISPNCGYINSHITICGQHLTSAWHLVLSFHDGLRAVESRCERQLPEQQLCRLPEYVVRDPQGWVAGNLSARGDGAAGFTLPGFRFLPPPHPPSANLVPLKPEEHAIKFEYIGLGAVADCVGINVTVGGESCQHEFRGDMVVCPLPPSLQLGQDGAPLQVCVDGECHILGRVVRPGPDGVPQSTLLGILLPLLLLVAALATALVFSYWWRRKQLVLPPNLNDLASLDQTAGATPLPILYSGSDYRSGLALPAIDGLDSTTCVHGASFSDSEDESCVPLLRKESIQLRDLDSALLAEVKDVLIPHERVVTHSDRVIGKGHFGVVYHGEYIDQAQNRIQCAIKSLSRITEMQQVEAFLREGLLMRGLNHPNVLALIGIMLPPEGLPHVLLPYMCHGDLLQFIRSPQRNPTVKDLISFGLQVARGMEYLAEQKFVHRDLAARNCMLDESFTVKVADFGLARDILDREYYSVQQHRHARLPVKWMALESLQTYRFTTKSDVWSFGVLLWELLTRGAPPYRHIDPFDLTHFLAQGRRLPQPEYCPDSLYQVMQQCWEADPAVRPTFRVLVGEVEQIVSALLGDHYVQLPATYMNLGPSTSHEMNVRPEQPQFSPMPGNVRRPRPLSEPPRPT

Series 1
Compound: CO[C@H]1CC[C@H](CNc2ccc(S(=O)(=O)NC(=O)c3ccc(N4CCN(CC5=C(c6ccc(Cl)cc6)CC(C)(C)CC5)CC4)cc3Oc3cnc4[nH]ccc4c3)cc2[N+](=O)[O-])CC1
Read-out: cell-free assay
Technique: competition with immobilised ligand
Concentration: 1 µM
Serine/threonine-protein kinase 4 (STK4, Homo sapiens, UniProt Q13043) — remaining binding: 84%.
For Mast/stem cell growth factor receptor Kit (KIT, Homo sapiens, UniProt P10721): remaining binding read 91%.
Cyclin-dependent kinase-like 1 (CDKL1, Homo sapiens, UniProt Q00532) — remaining binding: 94%.
For Tyrosine-protein kinase ABL1, non-phosphorylated (ABL1, Homo sapiens, UniProt P00519, H396P): remaining binding read 92%.
RAF proto-oncogene serine/threonine-protein kinase (RAF1, Homo sapiens, UniProt P04049) — remaining binding: 94%.
For Serine/threonine-protein kinase PAK 2 (PAK2, Homo sapiens, UniProt Q13177): remaining binding read 68%.
It gave 58% for remaining binding (Dual specificity protein kinase CLK4 (CLK4, Homo sapiens, UniProt Q9HAZ1)).
Epidermal growth factor receptor (EGFR, Homo sapiens, UniProt P00533, G719S) — remaining binding: 65%.
The remaining binding was 78% (Ephrin type-A receptor 5 (EPHA5, Homo sapiens, UniProt P54756)).

Series 2
Target: Prothrombin, mature alpha-thrombin (F2, Homo sapiens, UniProt P00734)
Technique: aptamer microarray, sandwich
Form: DNA with 2'F-ANA
Medium: in vitro
Concentration: 200 nM
Setting: whole 15-mer aptamer, many near background
Together with: Cy3 exosite-II aptamer, 400 nM
Direction: higher = stronger binding
Oligonucleotide: GGTTGGTGTGGTTGG
`2'F-ANA at 2 3 4 5 7 8 9 10 11 13 15` — result for “mean fluorescence intensity”: 53.3 a.u.
`2'F-ANA at 3 4 7 11 13 14` — result for “mean fluorescence intensity”: 415 a.u.
For `2'F-ANA at 1 4 6 9 10 11`, “mean fluorescence intensity” read 51.1 a.u.
For `2'F-ANA at 2 5 9 11 14`, “mean fluorescence intensity” read 52.8 a.u.
`2'F-ANA at 3 5 6 10 14 15`: “mean fluorescence intensity” 45.3 a.u.
For `2'F-ANA at 2 3 5 6 7 9 10 12 15`, “mean fluorescence intensity” read 81.7 a.u.
Under “mean fluorescence intensity”, `2'F-ANA at 3 6 7 10 15` is recorded as 488 a.u.
Under “mean fluorescence intensity”, `2'F-ANA at 1 3 7 9 10 11` is recorded as 101 a.u.

Series 3
Target: Centromere-binding protein 1, full length, His-tagged (CBF1, Saccharomyces cerevisiae, UniProt P17106, residues 1-351)
Sequence of UniProt P17106 (whole entry, looked up): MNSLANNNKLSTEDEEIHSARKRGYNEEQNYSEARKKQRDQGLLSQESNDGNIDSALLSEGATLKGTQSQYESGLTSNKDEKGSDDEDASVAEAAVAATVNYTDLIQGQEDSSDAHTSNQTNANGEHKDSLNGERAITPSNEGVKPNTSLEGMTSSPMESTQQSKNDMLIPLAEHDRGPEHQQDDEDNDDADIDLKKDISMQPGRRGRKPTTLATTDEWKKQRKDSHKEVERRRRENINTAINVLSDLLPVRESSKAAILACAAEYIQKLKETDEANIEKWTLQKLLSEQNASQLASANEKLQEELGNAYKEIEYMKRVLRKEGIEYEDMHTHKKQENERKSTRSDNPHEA
Technique: competition protein-binding microarray
Form: double-stranded DNA, one strand shown
Medium: in vitro
Concentration: 2 µM
Setting: whole 60-bp probe, lowest competitor level
Together with: Pho4 competitor, 0.05 µM
Direction: higher = stronger binding
For `CTTCTGTAAATTTGTAGGGTGGGTGGACGCGCCCCGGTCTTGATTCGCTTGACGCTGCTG`, the fluorescence intensity was 82.7 a.u.
The fluorescence intensity of `CTTTCCCGATCTTGTGTGGTGGGTGTAGCACATTTGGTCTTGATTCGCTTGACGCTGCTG` is reported as 80 a.u.
The fluorescence intensity of `TGCGCAACAACTTGTCACCTAACTTTATGTCTAGAAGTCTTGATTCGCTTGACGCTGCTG` is reported as 68.4 a.u.
With `CATACCCAACCTTGGTGTGTGGGTGAAGATATTTGTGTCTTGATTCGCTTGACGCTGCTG` the fluorescence intensity was 73 a.u.
With `TTCGCCAGTGCTTTGCCCGTGCAAATCGGATGCTGGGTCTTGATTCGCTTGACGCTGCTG` the fluorescence intensity was 78.6 a.u.
The fluorescence intensity of `CAACCAACTGACGAAACCGTGATGGTTATCAGAACTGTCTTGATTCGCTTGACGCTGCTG` is reported as 93.6 a.u.
`AAATTACTAAGTTCGCACGTGTTTTACCCCGTATGAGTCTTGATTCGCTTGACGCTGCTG` gave a fluorescence intensity of 1170 a.u.
`CGTCCTAGCGATTGAGAGGTGGGTGCCATGAGGAAGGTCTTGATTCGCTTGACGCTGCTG` has a fluorescence intensity of 78.5 a.u.

Series 4
SMILES: Cn1nc2c3c(cccc31)C(=O)c1ccccc1-2
Read-out: enzyme activity
Mode: inhibitor
Concentration: 0.5 µM
Reference: control
It gave 108% for remaining activity (Serine/threonine-protein kinase Nek6 (NEK6, Homo sapiens, UniProt Q9HC98)).
It gave 107% for remaining activity (Tyrosine-protein kinase JAK3 (JAK3, Homo sapiens, UniProt P52333)).
Dual specificity mitogen-activated protein kinase kinase 2 (MAP2K2, Homo sapiens, UniProt P36507) — remaining activity: 102%.
It gave 96.7% for remaining activity (Macrophage-stimulating protein receptor (MST1R, Homo sapiens, UniProt Q04912)).
It gave 94.3% for remaining activity (Tyrosine-protein kinase FRK (FRK, Homo sapiens, UniProt P42685)).
The remaining activity was 91.5% (Casein kinase I isoform gamma-2 (CSNK1G2, Homo sapiens, UniProt P78368)).
For Fibroblast growth factor receptor 1 (FGFR1, Homo sapiens, UniProt P11362): remaining activity read 99.5%.
The remaining activity was 97.8% (Tyrosine-protein kinase ABL2 (ABL2, Homo sapiens, UniProt P42684)).
The remaining activity was 93.5% (Ribosomal protein S6 kinase alpha-2 (RPS6KA2, Homo sapiens, UniProt Q15349)).
Mitogen-activated protein kinase kinase kinase 5 (MAP3K5, Homo sapiens, UniProt Q99683) — remaining activity: 93.1%.
Tyrosine-protein kinase Mer (MERTK, Homo sapiens, UniProt Q12866) — remaining activity: 95.9%.
The remaining activity was 98.2% (Angiopoietin-1 receptor (TEK, Homo sapiens, UniProt Q02763)).

Some of these lines once more (series 1):
For Mast/stem cell growth factor receptor Kit (KIT, Homo sapiens, UniProt P10721): remaining binding read 91%.
For Serine/threonine-protein kinase PAK 2 (PAK2, Homo sapiens, UniProt Q13177): remaining binding read 68%.
Serine/threonine-protein kinase 4 (STK4, Homo sapiens, UniProt Q13043) — remaining binding: 84%.
Epidermal growth factor receptor (EGFR, Homo sapiens, UniProt P00533, G719S) — remaining binding: 65%.
RAF proto-oncogene serine/threonine-protein kinase (RAF1, Homo sapiens, UniProt P04049) — remaining binding: 94%.
